Results collected from several papers.
Lines come from different studies, so protocols differ. Numbers after ± are the reported error. Square brackets hold non-standard residues; d marks the D form. Ends that are not written are not given here.
vfr 1-214: vfr 1-214 (Pseudomonas syringae)
crp 1-224: crp 1-224 (Streptomyces coelicolor, UniProt Q9XA42)
pmiR 1-240: pmiR fragment (Pseudomonas aeruginosa)
T1: vfr 1-214 (Pseudomonas syringae); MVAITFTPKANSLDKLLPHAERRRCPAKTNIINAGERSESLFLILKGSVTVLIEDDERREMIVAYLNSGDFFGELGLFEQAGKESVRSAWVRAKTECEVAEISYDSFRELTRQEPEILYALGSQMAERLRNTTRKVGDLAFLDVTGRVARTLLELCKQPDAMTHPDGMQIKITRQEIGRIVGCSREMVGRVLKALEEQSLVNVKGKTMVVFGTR
T2: cbrB residues 1-471 (Pseudomonas stutzeri); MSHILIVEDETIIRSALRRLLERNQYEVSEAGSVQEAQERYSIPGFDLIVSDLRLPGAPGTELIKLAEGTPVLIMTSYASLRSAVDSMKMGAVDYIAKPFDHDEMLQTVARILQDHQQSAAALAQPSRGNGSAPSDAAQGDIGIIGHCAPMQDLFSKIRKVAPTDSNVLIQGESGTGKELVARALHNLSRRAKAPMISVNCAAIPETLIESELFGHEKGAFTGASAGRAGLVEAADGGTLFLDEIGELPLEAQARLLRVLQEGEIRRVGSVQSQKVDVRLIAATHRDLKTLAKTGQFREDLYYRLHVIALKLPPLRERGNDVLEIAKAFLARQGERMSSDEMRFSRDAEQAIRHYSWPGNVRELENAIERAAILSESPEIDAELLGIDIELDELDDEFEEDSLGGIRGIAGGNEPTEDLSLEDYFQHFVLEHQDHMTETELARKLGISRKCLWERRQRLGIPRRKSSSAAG
T3: fruR (Faecalibacterium prausnitzii); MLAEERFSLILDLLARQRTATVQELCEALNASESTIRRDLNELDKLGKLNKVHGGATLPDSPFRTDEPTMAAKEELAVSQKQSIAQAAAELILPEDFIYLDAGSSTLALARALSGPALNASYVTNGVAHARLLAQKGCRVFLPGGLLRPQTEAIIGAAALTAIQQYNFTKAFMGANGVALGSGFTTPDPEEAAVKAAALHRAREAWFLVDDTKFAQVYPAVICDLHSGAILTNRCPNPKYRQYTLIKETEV

| Molecule | target or system | assay | system | conditions | endpoint | result |
| --- | --- | --- | --- | --- | --- | --- |
| ACATTCACTGAGGGTCAGTCGATAGAGCCAATCGCGTCTGTTGCTGTAAGCCTTTCGCCATACCCGTGTACGCCGCTAAAAAGTGTGACCGACCGCTCATGTTTGGTCATTACGCGCCGAGATGCTTGAAAGGCCCTGAATCGCGCGCTGCGCGGATCAGAGTCATCAGAAGAAAAAAAATAATGCATGGGATGCCGATCATGAGTATGCGCAGT (dsDNA (Pseudomonas syringae)) | T1, vfr 1-214 (Pseudomonas syringae) | EMSA | double-stranded DNA, one strand shown |  | binding | binds |
| TATCAACACTCTTTTCTTTTATGATATTTAATAGTTATTGCAAATTCATTGCTAACTTTCTTAACACGTTTTATAATAAACGGAGAGTTATCCGTTTGTCAATTTTAGAGAATTTTAAGTAGGTGTAATCATGCGAAAAGATGCAAAAGA (dsDNA) | gbaA 1-185 C55S (Staphylococcus aureus COL, UniProt Q5HCX3) | EMSA | double-stranded DNA, one strand shown |  | Kd | 15.2 nM |
| CTAGGGATCCTAAAGGGGTATTAAACGCACTTCTAATAACGATTTTATAGCGCTTCAAAGATATAACACTAATTCATTTTAAATAATAATTAGTTAATGAACGCTTCTGTTAATCTTAGTAAATCAAAACATTGCTACAATTACATCCAACCTTGATTTCGTTATGTCTTCAAGGAAAAACACTTTAAGAATAGGAGCTGCAGCGATGC (dsDNA (Helicobacter pylori); blunt) | Putative nickel-responsive regulator 1-148 (Helicobacter pylori, UniProt O25896) | EMSA | double-stranded DNA, one strand shown | together with: NiSO4 0.8 mM | binding | binds |
| GTACAGCTCGTCGTTCGACCCCACCGCACTCCCCTCCCACCGCCGGGCGTAAGTTCATTGTGTGATGCGGCCGACCCCGCGGCGCGCGTTTTGCCGACGGCCGGGGGTGAGATGCCGTACGCTCCCGTCGAGTCGGCGGTACTGCAAAGAAATGACAGGGAGCGGCGGGCTCCGGGAAGCGGGTCCCGGGTGCCCGGCCGCATGCAACACTGCGCCATGATGAGGATC (dsDNA) | crp 1-224 | DNase I footprinting | double-stranded DNA, one strand shown | together with: cAMP 50 µM | binding | binds |
| GCCTAAAAGAGGATATCCTTATAGCATAATTAACTAAACTTAATTAAATAAATAATATATCCTAAGGAGAGAAATG (dsDNA) | Manganese transport regulator 1-215 F187A (Streptococcus pyogenes, UniProt A0A0H2UTK0) | EMSA | double-stranded DNA, one strand shown | together with: Mn2+ 300 µM | binding | binds |
| GTGTGACAAGATATTCCAAGGGTGCTATAATAGGAAATGAGTTAAAAAACGAACAAGCGTTTTATAAGTGTTCGGTTTTTGTAACATAACTGTAATATAAAAACATTTGCATTACTGGTAACTTTCGGGTAATATTGGTAGCAGAGAGGGACAAACGGGACAAATCGAGACACGATACATACTCTCTATACAAGTGAAAAGAAGGTGGTGCATAT (dsDNA) | gp1 1-58 (Bacillus phage GIL01, UniProt Q7WSG8) | DNase I footprinting | double-stranded DNA, one strand shown | together with: gp1 200-3200 nM | binding | binds |
| AR[pT]KQTARKSTG (H3C1 1-12; pT3; pT = C[C@@H](OP(=O)(O)O)[C@H](N)C(=O)O) | birc5.1 R89H (Xenopus laevis, UniProt Q8JGN5) | ITC | peptide | pH 6.8, 25 °C | Kd | 1010 ± 90 nM |
| GTGTGCTTTCTTGTTCTTGTTGTGCCCATTAGAAAGCATTCGCCGTGCCAGCTTTTGAGAATCCTTTATTTTCAATAGGTTAGCCATCTTCACCTGTCACGAGAGACTGCCGCGCCAGCCCTTTCGTTACCGCCCACCCCAGGAGACCGTTACGCCGTACGAAAGGAGTAACACCTTCGGACAGGTTTCCAGTAACAGCTGCAGCTCCGCATCGGGCGCTCAACGCAGGACACCCCGACAGTGGTCACCGTCAGGGTGTCGATCGCTCGATGGGCATAGGTAGGTTCTTCGGCTGGTTAG (dsDNA) | T2, cbrB residues 1-471 (Pseudomonas stutzeri) | DNase I footprinting | double-stranded DNA, one strand shown |  | binding | binds |
| NSRQTDR |  |  | peptide, human polyclonal IgM RF SOR | concentration not given, 5 µg/mL mAb II-481 coated, together with: RF at 50% max binding concentration | inhibition | 0% |
| CTCAACCACTGGCTCGATCACCTGCTGCTGACCTTGTTACCGGGGGAGGTGAAATGAGCCCCGCGCAGCAGCGTGGGCTGGCGCTGTGGGCCAGTCTGCTGAGTGCGCTG (dsDNA (Klebsiella pneumoniae); blunt) | hns 1-135 (Klebsiella pneumoniae, UniProt A0ACD7U3E5) | EMSA | double-stranded DNA, one strand shown |  | binding | no binding |
| CGATTGTCGACAATCAAGCGACGAATGATTGACCCCACGCAATCCAGGCGGTAGCTTTCGCAAACATTGTCGACACATCGACCCGGACAGCCAGTACCATGACCCAGAACCCGCCCCCTCTCGAGATTGCCCATGACGACGGAGAGACCTTGTCGGAACACGTCTTCCGCAAGATCCAGAGCGCCATCGTCAGCGGCG (dsDNA) | pmiR 1-240 | EMSA | double-stranded DNA, one strand shown |  | binding | binds |
| AGGACCGGGGGGCGATGTGGACACGTGCACGCGTTCACGAGCGGCGGCGCATCCCGCGGGCCGCCGCCACGCCGGCCCCGAGAGTCGAGGGGCGCACCCGCACGCGGCGCGCCCACCCGCGACGGACGCGTGTGCCGGGGTAACCGTTCCGTGACCTGCGCCACATTCATGAGAGGTGTCTGAGAACCGGGCT (dsDNA) | crp 1-224 | DNase I footprinting | double-stranded DNA, one strand shown | together with: cAMP 50 µM | binding | binds |
| RmS-17, glycosylated (Rhipicephalus microplus) | PLG plasmin (Homo sapiens) | chromogenic substrate hydrolysis, inhibitor |  | 1 µM | protease inhibition | 58.4% |
| melittin |  | isothermal titration calorimetry | POPC/POPG LUVs 50:50% | 100 µM, pH 7.0, 60 °C | partitioning enthalpy | -25 kcal/mol |
| CGATCACTCGCTGAAGAATGGTCATGGCTATCCTCTTTTATTTTTATTGCGCTGAATCTGATCCGGGCCCGCGTGGAGAACGTCAGTCCGGAAAATGATCGCAGCGCTAAAGAGAATGTCGGCCGCACCAAGGACGACTTGAGACGTAGATCACATTATTTTTACTGGCAGGCACCACTGAAAAGGACTGCCTGACCTGAGACGTCATGCAGTCCTTTGCCTGAATACGGTTGA (dsDNA (Pseudomonas syringae)) | T1, vfr 1-214 (Pseudomonas syringae) | EMSA | double-stranded DNA, one strand shown |  | binding | binds |
| CCGTGATCCCTGGCTCCCCTATTAGGAGAGCTCCGCAAGGCGCTGGCACAGCCAGACCGAAGCGGTGAGAGATTCAGCCGACATTCCATTGTGGAGTGTCGGCCTTTTTGTTGTATCCCACTCTTTATGCATCCTGCCCAAAAAACAGAGCAATATTTTGTCGCTCAAACTTGGCGGAATCTGATTGATTTTGACTGAAATTTTGCTATAATAAGGGTACAAGGCGGTCAGAACCCGCCAATGTCAATCAAAATCAATCATATAAATCGAACAAGGGGGAATGTTCCCG (dsDNA) | T3, fruR (Faecalibacterium prausnitzii) | EMSA | double-stranded DNA, one strand shown | apo | binding | binds |
| CNSRQTDREDELI |  |  | peptide, human polyclonal IgM RF SOR | concentration not given, 5 µg/mL mAb II-481 coated, together with: RF at 50% max binding concentration | inhibition | 0% |
| CTAGCGGGGATTTCCGGCCACGCGTGCCGTGCCCGGGCCACGCTTGCCTTCCCGGCGCGCCGGACTCCCGGTGGCCTGGAGGACAGGAAAAGCGAGCGGCGAGGTGTCGGCGAGCAGGGTCAACTCGATCTTCTGATAGGGTCGGTGGGCTGTCCGGGGCGGCTAGGATGGACATTTTCATCGTCTCGGGCAGGCCTGTCGCGACCGCGCGAAGTCGCGACGGATGCCGCTGCTAAGGAGCAACGGATGACCGTTCTTATCCAGGG (dsDNA) | pmiR 1-240 | EMSA | double-stranded DNA, one strand shown |  | binding | no binding |
| CCATATGTCGGTGAATTTACAGGCGTTAGATTTACATACATTTATGGATGTATGTACCATAGCACGACGATAATATAAACGCAGCAATGGGTTTAAGGACCTTTGACCATTGACCAATTTGAAATCGGACACTCGAGGTTTACATATGAACAAAAACAGAGG (dsDNA (Salmonella enterica)) | ramA 1-113 (Salmonella enterica, UniProt H9L484) | EMSA | double-stranded DNA, one strand shown |  | binding | no binding |
| CAGGCGGTAGCTTTCGCAAACATTGTCGACACATCGACCCGGACAGCCAGTACCATGACCCAGAACCCGCCCCCTCTCGAGATTGCCCATGACGACGGAGAGACCTTGTCGGAACACGTCTTCCGCAAGATCCAGAGCGCCATCGTCAGCGGCG (dsDNA) | pmiR 1-240 | EMSA | double-stranded DNA, one strand shown |  | binding | no binding |
| RmS-6, glycosylated (Rhipicephalus microplus) | chymotrypsin (Bos taurus) | chromogenic substrate hydrolysis, inhibitor |  | 1 µM | protease inhibition | 24.3% |
| ATTGGATCCAGTACTTTTGCTTCAGCCATTGCTCTCTCCTTTCTTGAACTTTTTCTGGATGCTGCAACTCGGTTTCACGGGGTTCGCGGACCGGCGCTCAGGCGCACGCCGGGCTCGATGTTCAGGCGTTCTTCTTCTGCGCTCGAGATT (dsDNA) | pmiR 1-240 | EMSA | double-stranded DNA, one strand shown |  | binding | no binding |
| CGGCTTTTCTTTTCGCCTTATTTATCCAATTTATCGATTAAATAGAGAAAAGCTAACTATCCTTTACGAAATCTTCGACATCACAAAAATAATCAACTAACTTACTGATAAGTAATAAGAAAACACATAATCACCCATGTCGATAGACACTATCATCGCACTTCGTTTTTAAATCGACTTATCCGAACTGAAAATGACTCCAACGCA (dsDNA (Pseudomonas aeruginosa)) | mexT 1-304 A39V (Pseudomonas aeruginosa) | EMSA | double-stranded DNA, one strand shown |  | binding | no binding |

Some of these lines once more:
| Molecule | target or system | assay | system | conditions | endpoint | result |
| --- | --- | --- | --- | --- | --- | --- |
| NSRQTDR |  |  | peptide, human polyclonal IgM RF SOR | concentration not given, 5 µg/mL mAb II-481 coated, together with: RF at 50% max binding concentration | inhibition | 0% |
| CTCAACCACTGGCTCGATCACCTGCTGCTGACCTTGTTACCGGGGGAGGTGAAATGAGCCCCGCGCAGCAGCGTGGGCTGGCGCTGTGGGCCAGTCTGCTGAGTGCGCTG (dsDNA (Klebsiella pneumoniae); blunt) | hns 1-135 (Klebsiella pneumoniae, UniProt A0ACD7U3E5) | EMSA | double-stranded DNA, one strand shown |  | binding | no binding |
| CGATTGTCGACAATCAAGCGACGAATGATTGACCCCACGCAATCCAGGCGGTAGCTTTCGCAAACATTGTCGACACATCGACCCGGACAGCCAGTACCATGACCCAGAACCCGCCCCCTCTCGAGATTGCCCATGACGACGGAGAGACCTTGTCGGAACACGTCTTCCGCAAGATCCAGAGCGCCATCGTCAGCGGCG (dsDNA) | pmiR 1-240 | EMSA | double-stranded DNA, one strand shown |  | binding | binds |
| AGGACCGGGGGGCGATGTGGACACGTGCACGCGTTCACGAGCGGCGGCGCATCCCGCGGGCCGCCGCCACGCCGGCCCCGAGAGTCGAGGGGCGCACCCGCACGCGGCGCGCCCACCCGCGACGGACGCGTGTGCCGGGGTAACCGTTCCGTGACCTGCGCCACATTCATGAGAGGTGTCTGAGAACCGGGCT (dsDNA) | crp 1-224 | DNase I footprinting | double-stranded DNA, one strand shown | together with: cAMP 50 µM | binding | binds |
